Experimental data collected from several papers.
Numbered parts are unrelated; each lists some results of a single study.
UniProt Q9NYY3, sequence (whole entry, looked up): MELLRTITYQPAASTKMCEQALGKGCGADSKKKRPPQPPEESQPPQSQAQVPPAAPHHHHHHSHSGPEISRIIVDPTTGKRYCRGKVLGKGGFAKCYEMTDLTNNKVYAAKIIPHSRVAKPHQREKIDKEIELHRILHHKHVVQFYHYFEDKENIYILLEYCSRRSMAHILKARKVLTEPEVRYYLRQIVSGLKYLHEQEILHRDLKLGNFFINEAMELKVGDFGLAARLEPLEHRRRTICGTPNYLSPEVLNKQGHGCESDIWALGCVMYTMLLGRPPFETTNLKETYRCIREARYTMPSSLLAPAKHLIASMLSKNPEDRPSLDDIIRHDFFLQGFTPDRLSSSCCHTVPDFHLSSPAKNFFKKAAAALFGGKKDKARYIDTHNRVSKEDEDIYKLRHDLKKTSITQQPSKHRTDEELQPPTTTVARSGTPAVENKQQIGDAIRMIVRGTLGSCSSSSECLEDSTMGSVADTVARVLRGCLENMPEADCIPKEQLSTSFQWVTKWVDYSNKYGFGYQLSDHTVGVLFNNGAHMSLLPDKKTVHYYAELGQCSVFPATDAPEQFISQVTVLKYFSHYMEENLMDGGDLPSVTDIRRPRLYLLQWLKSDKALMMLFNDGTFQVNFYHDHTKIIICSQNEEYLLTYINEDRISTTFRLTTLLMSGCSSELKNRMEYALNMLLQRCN
UniProt Q13043, sequence (whole entry, looked up): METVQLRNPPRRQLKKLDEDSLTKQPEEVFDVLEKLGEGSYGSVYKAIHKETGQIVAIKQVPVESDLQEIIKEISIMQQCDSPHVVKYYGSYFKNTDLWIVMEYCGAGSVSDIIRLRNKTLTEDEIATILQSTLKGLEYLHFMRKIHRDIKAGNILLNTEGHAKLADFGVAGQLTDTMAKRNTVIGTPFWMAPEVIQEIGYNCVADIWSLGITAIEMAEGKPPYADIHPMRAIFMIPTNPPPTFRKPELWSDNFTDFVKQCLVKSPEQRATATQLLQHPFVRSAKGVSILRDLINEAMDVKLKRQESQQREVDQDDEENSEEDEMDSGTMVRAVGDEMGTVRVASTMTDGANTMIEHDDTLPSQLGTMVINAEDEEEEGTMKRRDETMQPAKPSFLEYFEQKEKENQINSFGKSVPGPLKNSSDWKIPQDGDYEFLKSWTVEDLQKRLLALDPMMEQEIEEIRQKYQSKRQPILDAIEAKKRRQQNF
UniProt P21802, sequence (whole entry, looked up): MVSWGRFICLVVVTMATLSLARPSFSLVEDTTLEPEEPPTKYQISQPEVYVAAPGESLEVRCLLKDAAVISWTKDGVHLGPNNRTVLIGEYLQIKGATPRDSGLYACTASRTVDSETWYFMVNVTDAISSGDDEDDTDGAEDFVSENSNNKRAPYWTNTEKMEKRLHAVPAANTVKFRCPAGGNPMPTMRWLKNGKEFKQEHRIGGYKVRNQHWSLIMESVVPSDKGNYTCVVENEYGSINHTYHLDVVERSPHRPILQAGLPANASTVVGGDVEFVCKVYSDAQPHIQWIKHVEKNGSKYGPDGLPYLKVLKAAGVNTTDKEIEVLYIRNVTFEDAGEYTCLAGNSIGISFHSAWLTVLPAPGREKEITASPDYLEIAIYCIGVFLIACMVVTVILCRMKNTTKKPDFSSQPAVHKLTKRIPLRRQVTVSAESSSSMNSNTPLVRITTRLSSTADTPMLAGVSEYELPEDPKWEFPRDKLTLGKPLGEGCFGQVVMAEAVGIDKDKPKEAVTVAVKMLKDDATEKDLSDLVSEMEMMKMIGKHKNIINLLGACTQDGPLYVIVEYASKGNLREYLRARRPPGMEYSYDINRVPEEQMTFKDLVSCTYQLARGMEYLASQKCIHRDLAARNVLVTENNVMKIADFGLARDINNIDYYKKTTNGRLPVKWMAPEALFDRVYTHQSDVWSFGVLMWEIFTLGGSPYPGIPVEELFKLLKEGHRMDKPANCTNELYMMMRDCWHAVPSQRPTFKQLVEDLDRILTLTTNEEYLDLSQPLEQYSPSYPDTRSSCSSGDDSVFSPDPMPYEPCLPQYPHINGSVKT
UniProt Q13546, sequence (whole entry, looked up): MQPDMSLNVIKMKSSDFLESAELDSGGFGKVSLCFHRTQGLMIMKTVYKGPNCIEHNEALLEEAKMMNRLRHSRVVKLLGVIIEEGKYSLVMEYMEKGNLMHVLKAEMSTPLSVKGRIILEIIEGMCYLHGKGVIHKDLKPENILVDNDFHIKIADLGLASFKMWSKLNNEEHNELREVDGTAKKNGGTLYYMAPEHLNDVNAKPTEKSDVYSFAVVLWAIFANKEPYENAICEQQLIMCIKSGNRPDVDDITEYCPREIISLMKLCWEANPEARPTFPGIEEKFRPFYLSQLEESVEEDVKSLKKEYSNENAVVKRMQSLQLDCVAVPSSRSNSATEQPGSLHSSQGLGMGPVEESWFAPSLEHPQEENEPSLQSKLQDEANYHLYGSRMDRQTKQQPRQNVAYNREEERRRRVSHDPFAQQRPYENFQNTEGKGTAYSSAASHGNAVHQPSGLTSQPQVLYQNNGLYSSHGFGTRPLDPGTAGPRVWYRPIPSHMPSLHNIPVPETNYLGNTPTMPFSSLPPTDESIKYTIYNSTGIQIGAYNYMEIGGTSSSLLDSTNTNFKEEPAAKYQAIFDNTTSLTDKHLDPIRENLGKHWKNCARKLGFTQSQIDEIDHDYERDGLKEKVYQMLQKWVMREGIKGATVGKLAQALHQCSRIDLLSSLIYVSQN
UniProt P10721, sequence (whole entry, unmodified, looked up): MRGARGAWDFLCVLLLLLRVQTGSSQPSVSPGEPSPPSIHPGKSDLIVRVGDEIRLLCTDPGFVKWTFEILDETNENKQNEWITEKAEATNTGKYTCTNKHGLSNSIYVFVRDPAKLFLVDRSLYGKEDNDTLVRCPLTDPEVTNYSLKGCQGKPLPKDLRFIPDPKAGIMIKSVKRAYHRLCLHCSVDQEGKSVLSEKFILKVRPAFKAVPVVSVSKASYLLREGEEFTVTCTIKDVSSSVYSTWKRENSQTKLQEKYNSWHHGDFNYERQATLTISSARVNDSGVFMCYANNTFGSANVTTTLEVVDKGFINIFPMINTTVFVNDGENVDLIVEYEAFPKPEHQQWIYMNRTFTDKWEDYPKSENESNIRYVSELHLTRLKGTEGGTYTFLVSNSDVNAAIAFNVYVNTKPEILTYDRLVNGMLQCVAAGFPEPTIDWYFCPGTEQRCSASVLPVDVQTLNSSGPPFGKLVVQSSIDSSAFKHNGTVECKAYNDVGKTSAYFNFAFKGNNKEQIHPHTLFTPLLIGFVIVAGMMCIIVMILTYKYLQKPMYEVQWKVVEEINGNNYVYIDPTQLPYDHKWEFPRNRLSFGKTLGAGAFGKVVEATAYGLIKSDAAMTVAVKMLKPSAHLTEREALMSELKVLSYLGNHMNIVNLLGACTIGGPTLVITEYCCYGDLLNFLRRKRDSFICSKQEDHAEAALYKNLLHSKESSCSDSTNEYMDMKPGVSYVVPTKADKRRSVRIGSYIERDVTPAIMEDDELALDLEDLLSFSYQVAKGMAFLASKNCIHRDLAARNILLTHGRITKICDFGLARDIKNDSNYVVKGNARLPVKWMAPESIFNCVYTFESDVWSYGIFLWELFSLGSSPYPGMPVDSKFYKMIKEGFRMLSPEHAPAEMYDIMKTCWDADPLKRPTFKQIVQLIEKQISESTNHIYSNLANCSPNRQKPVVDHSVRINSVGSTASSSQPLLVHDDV
UniProt Q13177, sequence (whole entry, looked up): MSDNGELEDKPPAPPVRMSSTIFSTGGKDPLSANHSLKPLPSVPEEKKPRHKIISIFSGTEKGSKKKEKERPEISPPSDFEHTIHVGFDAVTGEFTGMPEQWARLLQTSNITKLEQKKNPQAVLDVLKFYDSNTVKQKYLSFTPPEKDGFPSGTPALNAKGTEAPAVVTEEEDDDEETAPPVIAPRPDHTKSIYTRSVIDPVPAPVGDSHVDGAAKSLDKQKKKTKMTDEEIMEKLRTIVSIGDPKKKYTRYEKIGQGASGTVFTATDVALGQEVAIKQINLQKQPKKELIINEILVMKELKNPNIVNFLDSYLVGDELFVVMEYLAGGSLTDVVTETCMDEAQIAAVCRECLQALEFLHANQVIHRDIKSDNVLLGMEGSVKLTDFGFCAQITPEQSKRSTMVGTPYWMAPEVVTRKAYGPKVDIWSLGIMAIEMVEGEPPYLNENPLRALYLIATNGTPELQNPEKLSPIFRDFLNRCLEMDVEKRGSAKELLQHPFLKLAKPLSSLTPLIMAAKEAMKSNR

Sample 1 — host: human; medium: microsomes or S9; tested at: 2 µM; time: 0.5 h
| SMILES | remaining compound [%] |
| --- | --- |
| COCCn1cc2c3c(cccc31)CN(C(=O)Nc1ccccc1C(F)(F)F)CC2 | 4.45 |
| Nc1cccc(Nc2nc(-c3ccc(Cl)cc3)cs2)c1 | 17.4 |
| CC1CCCC(C)N1C(=O)c1cc(-c2ccccc2)nn1-c1ncccc1-c1ccccc1 (stereo not drawn) | < 1 |
| Cn1c(Nc2ccccc2Cl)cc(=O)n(C)c1=O | 92.5 |
| CCOc1ccccc1NC(=O)NC1(C(=O)O)CCCCC1 | 53.7 |
| OCC(O)Cn1c(-c2ccc(F)cc2)nc2ccccc21 (stereo not drawn) | 87.7 |
| CC1CCC(NS(=O)(=O)CC(=O)NC(C)CCc2ccc(Br)cc2)CC1 (stereo not drawn) | 6.51 |
| Cc1cc(O)c(C(=O)O)cc1S(=O)(=O)Nc1ccc(NC(=O)NCC2CCCO2)cc1 (stereo not drawn) | 78.9 |

Sample 2 — read-out: cell-free assay; technique: competition with immobilised ligand; tested at: 1 µM
SMILES: NS(=O)(=O)c1cc(NC(=O)Cc2ccccc2)ccc1Oc1cccc(Cl)c1
| target | remaining binding [%] |
| --- | --- |
| KIT (Homo sapiens, UniProt P10721, D816V) | 77 |
| Tyrosine-protein kinase ABL1, non-phosphorylated (ABL1, Homo sapiens, UniProt P00519, H396P) | 97 |
| STK4 (Homo sapiens, UniProt Q13043) | 86 |
| PAK2 (Homo sapiens, UniProt Q13177) | 91 |
| RIPK1 (Homo sapiens, UniProt Q13546) | 81 |
| CIT (Homo sapiens, UniProt O14578) | 100 |
| PIK3C2B (Homo sapiens, UniProt O00750) | 91 |
| PLK2 (Homo sapiens, UniProt Q9NYY3) | 73 |
| TNK1 (Homo sapiens, UniProt Q13470) | 74 |
| FGFR2 (Homo sapiens, UniProt P21802) | 61 |

Sample 3 — read-out: enzyme activity; action: inhibitor; tested at: 0.5 µM; baseline: control
Target: Serine/threonine-protein kinase OSR1 (OXSR1, Homo sapiens, UniProt O95747)
UniProt O95747, sequence (whole entry, looked up): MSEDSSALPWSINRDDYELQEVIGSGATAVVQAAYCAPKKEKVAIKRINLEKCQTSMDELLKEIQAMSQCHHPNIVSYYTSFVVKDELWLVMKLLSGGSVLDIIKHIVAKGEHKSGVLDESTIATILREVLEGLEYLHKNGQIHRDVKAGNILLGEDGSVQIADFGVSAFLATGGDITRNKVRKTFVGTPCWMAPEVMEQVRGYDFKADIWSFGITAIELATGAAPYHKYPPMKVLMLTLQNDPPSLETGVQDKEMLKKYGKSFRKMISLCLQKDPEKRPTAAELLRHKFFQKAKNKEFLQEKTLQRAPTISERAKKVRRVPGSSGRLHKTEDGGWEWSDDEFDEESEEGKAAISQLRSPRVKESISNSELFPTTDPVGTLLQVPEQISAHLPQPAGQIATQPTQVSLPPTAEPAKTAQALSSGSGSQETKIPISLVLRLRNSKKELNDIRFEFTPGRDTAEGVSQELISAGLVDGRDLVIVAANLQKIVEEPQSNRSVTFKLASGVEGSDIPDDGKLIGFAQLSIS
| SMILES | remaining activity [%] |
| --- | --- |
| Cc1nc(-c2ccccc2)c(-c2ccncc2)o1 | 102 |
| COc1ccc(C(=O)Nc2sc3c(c2C(N)=O)CCCC3)cc1OC | 99.9 |
| N#CC(C#N)=C(N)/C(C#N)=C/c1ccc(O)cc1 | 72.2 |
| Oc1ccc(-c2nc(-c3ccncc3)c(-c3ccc(F)cc3)[nH]2)cc1 | 97.6 |
| O=c1c2ccccc2[nH]c(=S)n1CCN1CCC(=C(c2ccc(F)cc2)c2ccc(F)cc2)CC1 | 115 |
| Cc1cccc(-c2[nH]c(C(C)(C)C)nc2-c2ccc3c(c2)OCO3)n1 | 103 |
| O=C(O)c1ccc2c3c1cccc3c(=O)n1c3ccccc3nc21 | 104 |
| Cn1sc(=O)n(Cc2ccccc2)c1=O | 91.1 |
| CN(C)c1ccc(C=C2C(=O)Nc3ccccc32)cc1 | 106 |
| O=C1NC(=O)C(c2cn(CCCO)c3ncccc23)=C1c1cnccn1 | 101 |
| Nc1ccc2ncnc(NCCc3ccc(Oc4ccccc4)cc3)c2c1 | 101 |
| Cn1c2ccccc2c2c3c(c4c5ccccc5n(CCC#N)c4c21)CNC3=O | 102 |
| CNC(=O)c1cc(Oc2ccc(NC(=O)Nc3ccc(Cl)c(C(F)(F)F)c3)cc2)ccn1 | 103 |
| O=C(CCCc1ccc(-c2ccccc2F)cc1)Nc1ccc(O)cc1 | 102 |

Further values, each from its own experiment
| SMILES | test system | conditions | measurement | result |
| --- | --- | --- | --- | --- |
| CC(C)n1cnc(-c2ccc(F)cc2)c1-c1ncc(C(=O)Nc2ccc(N3CCN(C)CC3)cc2)[nH]1 | human, idiopathic pulmonary fibrosis | 60 mg once daily, trial, treatment-emergent | patients with Nasopharyngitis | 0% |

Some of these lines once more (sample 2):
| target | remaining binding [%] |
| --- | --- |
| PLK2 (Homo sapiens, UniProt Q9NYY3) | 73 |
| PAK2 (Homo sapiens, UniProt Q13177) | 91 |
| RIPK1 (Homo sapiens, UniProt Q13546) | 81 |
| KIT (Homo sapiens, UniProt P10721, D816V) | 77 |
